Results from different studies.
Compare with care: the assays were run in different laboratories.
Target: Cytochrome P450 1A2 (CYP1A2, Homo sapiens, UniProt P05177)
Sequence of UniProt P05177 (whole entry, looked up): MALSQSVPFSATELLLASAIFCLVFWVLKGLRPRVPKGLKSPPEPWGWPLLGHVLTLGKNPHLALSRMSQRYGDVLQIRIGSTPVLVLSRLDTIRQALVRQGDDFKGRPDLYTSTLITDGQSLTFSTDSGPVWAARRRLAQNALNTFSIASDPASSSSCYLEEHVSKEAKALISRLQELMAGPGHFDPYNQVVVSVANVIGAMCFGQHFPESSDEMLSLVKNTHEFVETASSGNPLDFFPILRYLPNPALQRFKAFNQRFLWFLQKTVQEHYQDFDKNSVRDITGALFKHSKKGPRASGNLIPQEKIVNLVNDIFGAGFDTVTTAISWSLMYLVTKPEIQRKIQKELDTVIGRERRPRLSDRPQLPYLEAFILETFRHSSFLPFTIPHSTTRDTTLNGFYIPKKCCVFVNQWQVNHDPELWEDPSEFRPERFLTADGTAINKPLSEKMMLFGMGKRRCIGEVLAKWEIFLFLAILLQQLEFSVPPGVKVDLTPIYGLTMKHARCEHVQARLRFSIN

With `Nc1ncn([C@@H]2O[C@H](CO)[C@@H](O)[C@H]2O)c(=O)n1` the inhibition was 19% (enzyme activity, inhibitor; human liver microsomes; 100 µM, with: ethoxyresorufin 0.4 µM).
The kinact of `C#Cc1ccc2c(C)cc(=O)oc2c1` is reported as 0.0065 s⁻¹ (enzyme activity, inhibitor; pH 7.6).
The IC50 of `CC1=N[C@]2(C(=O)CO)[C@@H](C[C@H]3[C@@H]4C[C@@H](O)C5=CC(=O)C=C[C@]5(C)[C@H]4[C@@H](O)C[C@@]32C)O1` is reported as over 50000 nM (enzyme activity, inhibitor; human, liver microsomes; with preincubation).
`Cc1noc(C)c1Cn1cc(N2C(=O)CN(Cc3cccc(O)c3)C2=O)cn1` has an inhibition of 3% (enzyme activity, inhibitor, fluorescence; Sf9; 10 µM).
With `COc1cc2c(Oc3ccc4[nH]c(C)cc4c3F)ccnc2cc1OCC1(N)CC1` the intrinsic clearance was 0.23 µL/min/pmol (substrate; 1 µM, 60 min, pH 7.4, 37 °C).
With `COc1cc(Sc2c(-c3ccncc3)[nH]c3ccccc23)cc(OC)c1OC` the inhibition was under 50% (enzyme activity, inhibitor, fluorescence; 1 µM, 15 min, pH 7.4).
`COc1c2ccoc2c(OC)c2oc(=O)ccc12` gave an inhibition of about 60% (recombinant microsomes; 8 µM, after 20 h dialysis, with: methoxyresorufin).
`CCn1c(C(=O)N(C2CC2)C2CC2)cc2c3c(ncn3C)c(Nc3cc(C)n(C)n3)nc21` has a KI of 2900 nM (time-dependent inhibitor; human liver microsomes; pH 7.4, with: phenacetin 450 µM).
With `C#Cc1ccc2c(C)c(-c3ccccc3)c(=O)oc2c1` the kinact was 0.00167 s⁻¹ (enzyme activity, inhibitor; pH 7.6).
For `COc1cc(Sc2c(-n3ccnc3)[nH]c3ccccc23)cc(OC)c1OC`, the inhibition was under 50% (enzyme activity, inhibitor, fluorescence; 1 µM, 15 min, pH 7.4).
The half-life of `Cc1cc2c(ccc3c(=O)cc(-c4ccccc4)oc32)o1` is reported as 1.65 min (MROD activity; with: methoxyresorufin).
`C#Cc1ccc2c(C(F)(F)F)cc(=O)oc2c1` gave a kinact of 0.00517 s⁻¹ (enzyme activity, inhibitor; pH 7.6).
`COc1cc(CCc2cnc3ccn(S(=O)(=O)c4cn(C)cn4)c3n2)cc(OC)c1` has an inhibition of 32% (enzyme activity, inhibitor; human, liver microsomes; 10 µM, 20 min, pH 7.4).

Excerpt of the above:
With `C#Cc1ccc2c(C)c(-c3ccccc3)c(=O)oc2c1` the kinact was 0.00167 s⁻¹ (enzyme activity, inhibitor; pH 7.6).
For `COc1cc(Sc2c(-n3ccnc3)[nH]c3ccccc23)cc(OC)c1OC`, the inhibition was under 50% (enzyme activity, inhibitor, fluorescence; 1 µM, 15 min, pH 7.4).
